Published values of several laboratories.
A part holds a random share of what one study measured. Positions count from the first letter of the parent shown.

Series 1 — technique: protein-binding microarray; form: double-stranded DNA, one strand shown; matrix: in vitro; tested at: not given; reading: higher = stronger binding
Target: TATA-box-binding protein 1 (TBP1, Arabidopsis thaliana, UniProt P28147, residues 1-200, full length assumed)
Setting: k-mer, scored over probes, only values ≥0.25
Construct (chain): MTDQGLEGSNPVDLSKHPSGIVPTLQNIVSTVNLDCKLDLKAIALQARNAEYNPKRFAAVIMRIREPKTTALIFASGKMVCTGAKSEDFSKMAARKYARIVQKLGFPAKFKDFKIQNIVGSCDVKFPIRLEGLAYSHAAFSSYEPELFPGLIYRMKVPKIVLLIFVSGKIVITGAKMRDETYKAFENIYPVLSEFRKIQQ
Sequence | E-score
AGTTTAA | 0.337
AGATATA | 0.429
TAAAAGA | 0.355
ATGAATA | 0.28
ATATACC | 0.414
TACATAA | 0.322
ATCTTAA | 0.355
GTTTTTA | 0.405

Series 2 — technique: competition protein-binding microarray; form: double-stranded DNA, one strand shown; matrix: in vitro; tested at: 2 µM; together with: Cbf1 competitor, 0.05 µM; reading: higher = stronger binding; shared flanks, not repeated: … GTCTTGATTCGCTTGACGCTGCTG
Target: Phosphate system positive regulatory protein PHO4, full length, GST-tagged (PHO4, Saccharomyces cerevisiae, UniProt P07270, residues 1-312)
Setting: whole 60-bp probe, lowest competitor level
Residues (chain): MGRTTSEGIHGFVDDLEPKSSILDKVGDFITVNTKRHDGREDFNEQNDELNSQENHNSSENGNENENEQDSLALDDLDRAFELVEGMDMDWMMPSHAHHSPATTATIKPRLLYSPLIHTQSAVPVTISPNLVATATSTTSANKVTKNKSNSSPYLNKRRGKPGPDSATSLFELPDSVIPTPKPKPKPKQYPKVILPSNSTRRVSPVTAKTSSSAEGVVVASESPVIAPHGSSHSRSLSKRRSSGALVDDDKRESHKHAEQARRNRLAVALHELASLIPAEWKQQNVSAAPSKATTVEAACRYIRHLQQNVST
Sequence | fluorescence intensity [a.u.]
GTCGTCTATGGGTGTTGCGTGGGTAGTTCTCGCGCT | 7180
CTTTCCCGATCTTGGGTTGTGGGTGTAGCACATTTG | 5540
CTTTCCCGATCTTTTCACGTGTAATTAGCACATTTG | 12100
GTCTTGTCTCATTGTTCTGTGGGTGTCCCCACTTCA | 4580
CAGTCTCTGCAAAAGCACGTGCGATGTCTCTGGTGT | 20800
GTCTTGTCTCATTGCCAAGTGGGTGTCCCCACTTCA | 4730
CCGGTCAAGGTCTGGCACGTGGAGTCCAGGACATCC | 19300
GCAATACATGAGAACTTCGTGCCAGCAAGGCCCAGT | 6070

Series 3 — technique: DHFR PCA, deep sequencing; matrix: yeast; together with: (+)-ABA 0.11 µM; relative to: wild-type fitted maximum; reading: higher = stronger binding
Target: ABI1, truncated, D143A, DHFR fusion (Arabidopsis thaliana)
Setting: methotrexate growth selection, single substitutions
Parent: PYL1, truncated, DHFR fusion (Arabidopsis thaliana); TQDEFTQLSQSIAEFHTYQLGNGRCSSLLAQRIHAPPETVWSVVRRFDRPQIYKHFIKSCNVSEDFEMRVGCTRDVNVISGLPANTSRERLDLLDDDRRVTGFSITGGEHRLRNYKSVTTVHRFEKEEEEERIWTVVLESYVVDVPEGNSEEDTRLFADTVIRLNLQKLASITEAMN; partner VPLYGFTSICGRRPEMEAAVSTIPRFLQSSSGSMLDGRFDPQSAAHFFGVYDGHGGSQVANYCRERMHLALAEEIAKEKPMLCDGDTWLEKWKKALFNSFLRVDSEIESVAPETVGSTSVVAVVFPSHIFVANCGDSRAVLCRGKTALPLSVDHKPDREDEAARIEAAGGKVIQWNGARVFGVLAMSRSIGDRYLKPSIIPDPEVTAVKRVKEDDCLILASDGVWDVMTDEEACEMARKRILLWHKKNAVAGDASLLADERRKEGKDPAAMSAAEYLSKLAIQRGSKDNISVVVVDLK
Variant | relative binding score [%]
V161A | 6.78
R111V | 9.77
D96C | -3.19
R24C | 10.6
E129P | 52
S63H | 15.8
I162Y | 1.15
N114S | -2.04

Further values, each from its own experiment — parent: viral docking peptide; PGASRRLFGSSAD
Variant | target | assay | test system | conditions | how to read | measurement | result
P1A | CCNA1, cyclin fold, Cln2 fusion (human) | yeast growth competition, sequencing | yeast | weak parent motif | relative to: not given, higher = stronger binding | normalised enrichment score | 0.0497

For quick reference, copied from above (series 2):
Sequence | fluorescence intensity [a.u.]
CTTTCCCGATCTTGGGTTGTGGGTGTAGCACATTTG | 5540
CTTTCCCGATCTTTTCACGTGTAATTAGCACATTTG | 12100
GTCTTGTCTCATTGTTCTGTGGGTGTCCCCACTTCA | 4580
CAGTCTCTGCAAAAGCACGTGCGATGTCTCTGGTGT | 20800
